Measured values collected from several papers.
Parts stem from different laboratories: compare values within a part only. Substitutions count along the parent as printed.

Series 1
Target: Histone acetyltransferase KAT6A, winged helix 1, GST fusion (KAT6A, Homo sapiens, UniProt Q92794, residues 1-85)
Technique: protein binding microarray
Form: double-stranded DNA, one strand shown
Matrix: in vitro
Tested at: not given
Notes: 8-mer, flanks averaged, mean of 2 arrays, mostly near background
Baseline: not given
Reading: higher = stronger binding
Measurement: E-score
Target sequence (chain): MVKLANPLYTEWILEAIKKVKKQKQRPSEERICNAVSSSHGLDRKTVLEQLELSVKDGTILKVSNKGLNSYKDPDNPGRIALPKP
Sequence = GATTGGAA; value = -0.187
Sequence = AGCATCGC; value = 0.178
Sequence = CTGCCCAA; value = -0.219
Sequence = CCGGGTTC; value = 0.333
Sequence = ATCAGTTG; value = -0.149
Sequence = ACATGTTG; value = -0.108
Sequence = GACAAGCC; value = 0.04
Sequence = TAGTACAA; value = -0.105
Sequence = CACTTATC; value = -0.266
Sequence = CGCTGCCA; value = 0.0828
Sequence = GGGCCGCA; value = 0.363
Sequence = GTGGTTGA; value = -0.117
Sequence = AGGCTGCG; value = 0.0658
Sequence = TATCGACA; value = 0.105
Sequence = CAGTGCTC; value = -0.0955
Sequence = GGCTGAAA; value = 0.0215
Sequence = GAATGAAA; value = -0.0713
Sequence = CCCGCAGA; value = 0.301
Sequence = ACAATGCA; value = -0.171
Sequence = AATCCTAC; value = -0.0978
Sequence = AACGTAAC; value = -0.0901

Series 2
Target: ABI1, truncated, D143A, DHFR fusion (Arabidopsis thaliana)
Technique: DHFR PCA, deep sequencing
Matrix: yeast
Notes: methotrexate growth selection, single substitutions
Added: (+)-ABA 0 µM
Baseline: wild-type fitted maximum
Reading: higher = stronger binding
Measurement: relative binding score
Starting sequence: PYL1, truncated, DHFR fusion (Arabidopsis thaliana); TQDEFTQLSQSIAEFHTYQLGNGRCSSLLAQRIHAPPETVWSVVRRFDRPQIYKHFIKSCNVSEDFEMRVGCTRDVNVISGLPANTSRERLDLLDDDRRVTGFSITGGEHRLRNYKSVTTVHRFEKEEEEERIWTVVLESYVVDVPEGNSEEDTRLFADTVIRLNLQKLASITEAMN
Variant = D97Q; value = 26.4%
Variant = T160M; value = 1.7%
Variant = E130S; value = 30.6%
Variant = V143S; value = -5.22%
Variant = E67L; value = 1.38%
Variant = R46Y; value = 4.22%
Variant = V100M; value = 8.13%
Variant = F5M; value = 40.1%
Variant = Q51W; value = 8.28%
Variant = T135I; value = -0.248%

Series 3
Target: RNA binding protein fox-1 homolog 2, RRM domain, GST-SBP tag (RBFOX2, Homo sapiens, UniProt O43251-10, residues 100-194)
Technique: RNA Bind-n-Seq
Form: RNA
Matrix: in vitro
Tested at: 365 nM
Notes: natural RNA segment, single round, ends assumed
Baseline: no-protein control
Reading: higher = stronger binding
Measurement: RBNS enrichment (R)
All sequences stand within: GGGAGUUCUACAGUCCGACGAUC … UGGAAUUCUCGGGUGCCAA
Target sequence (chain): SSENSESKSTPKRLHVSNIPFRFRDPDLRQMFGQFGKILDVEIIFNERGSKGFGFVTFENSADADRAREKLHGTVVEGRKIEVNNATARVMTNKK
Sequence = UCAGAACUUACAGAAUCUUAAACAUCAUGCAGGUAAACUCAUUGUCUGUUUGGAAGACCAGAAUGUGAAGACAAGUAGUAGAAGAAAAUGAAUGCUGCUGCUGAGACUGA; value = 0.805
Sequence = UUAUUUACCCAUACGUAUAUUUUAUGACCAUGAGCUAAGUUGUUAUUUCUUUCAUUCAUAUCCCUGCUGAAAUAUUGGUACUAGCAACUUAAAGUUGGCAAGUCUCAUCU; value = 0.411
Sequence = CAACUCUUAACUUGCCUCCCUGUUAAUAAGUCUUUGAUUCUGAAGUGAACGUUAGCUUUUCUCAAACCCACACAAAUCCUUGAACAGGAAUUGUUUAUAGUGACCACACU; value = 0.432
Sequence = AGUACACUUUUGUUGAAGUUACAAAACCAGAAUGAGUAUGGCAAGUUCCAAGGGUCCCCAGUGCUUCCCAUUCAGCAUCCCCAGGGAGCCCCCAAAGGUACUGAAAAGUC; value = 0.966
Sequence = UCUUUCAUAUAUAUUUUCACUUCCUAAUUCUAGUGUACAUAUCCCUGUAUAUCAUGGUAUCUGUGGGCAUAUGUCUGUUUCUUAUAAAGACACAUAUUUGUGUGUGUAUG; value = 0.439
Sequence = AAAAUGUCCAUCCUGGUCACAGCACACAAGAUGGCUAUUGGUCUGCUUUUACCCUACCCUGUACUAUACAUGAAAAUUCCAGUUAUUAACACACUCAAACUGGUGGAGCU; value = 0.538
Sequence = CCUUGACCAACUAGUCCAGCAUUUGACAUGCAUUUUAACUUUUUGGUUCAAUUUCAAGUCUGCUGUGGCUAAUAGUGGUCAAGAUUCCGAACUAGGACUUUCCUCUGUGA; value = 0.231
Sequence = GGAGAUGGCCACAGGGGACAACACACUAAUGGUUAAUUAUUGCUCAUGUUGUAGAGCCUUUUCUUAGGUGGAGUAUUUCUGAAGGCUUUAAAAUCAUUACAAUAAAAACC; value = 0.897

Series 4
Target: CCND2, cyclin fold, Cln2 fusion (human)
Technique: yeast growth competition, sequencing
Matrix: yeast
Notes: weak parent motif
Baseline: not given
Reading: higher = stronger binding
Measurement: normalised enrichment score
Starting sequence: BRCA2 docking peptide (human); PSIKRNLLNEFDR; partner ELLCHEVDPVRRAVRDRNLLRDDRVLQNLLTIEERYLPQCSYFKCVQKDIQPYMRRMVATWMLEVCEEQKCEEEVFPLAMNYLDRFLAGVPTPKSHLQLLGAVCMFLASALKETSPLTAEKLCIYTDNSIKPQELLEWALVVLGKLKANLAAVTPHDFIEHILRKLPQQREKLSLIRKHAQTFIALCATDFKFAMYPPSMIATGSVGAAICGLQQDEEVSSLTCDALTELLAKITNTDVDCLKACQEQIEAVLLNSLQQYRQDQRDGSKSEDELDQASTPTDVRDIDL
Variant = PSIKRNLLNEFHR [D12H]; value = -0.114
Variant = PSIKRNLLNEFDE [R13E]; value = 0.289
Variant = PVIKRNLLNEFDR [S2V]; value = 0.0759
Variant = PSIKRNLLNEFDS [R13S]; value = -0.0878
Variant = PSIERNLLNEFDR [K4E]; value = -0.117
Variant = PSIRRNLLNEFDR [K4R]; value = 0.0998
Variant = PSIKRMLLNEFDR [N6M]; value = -0.146
Variant = PSIKRNLLNEFDA [R13A]; value = 0.395
Variant = PYIKRNLLNEFDR [S2Y]; value = 0.411
Variant = PSIKRNILNEFDR [L7I]; value = 0.842
Variant = PSIKRNLLNEFDH [R13H]; value = 0.136
Variant = PSILRNLLNEFDR [K4L]; value = -0.113
Variant = PNIKRNLLNEFDR [S2N]; value = 0.102
Variant = PSIKRNLLNEFDI [R13I]; value = 1.11
Variant = PSIKRNLLNGFDR [E10G]; value = 0.109
Variant = PSIKRNLLNEFDW [R13W]; value = 0.834
Variant = PSICRNLLNEFDR [K4C]; value = 0.694
Variant = PSIKRNLLNRFDR [E10R]; value = -0.185
Variant = PSIKFNLLNEFDR [R5F]; value = -0.514
Variant = PSIDRNLLNEFDR [K4D]; value = 0.22
Variant = PSIKRNLDNEFDR [L8D]; value = 0.0913
Variant = PSIKRNLLNEFDT [R13T]; value = 0.2
Variant = PSIKRNLLNEWDR [F11W]; value = 0.09
Variant = PSIHRNLLNEFDR [K4H]; value = 0.111
Variant = PSIKRNLLNETDR [F11T]; value = 0.277

Excerpt of the above (series 2):
Variant = Q51W; value = 8.28%
Variant = V100M; value = 8.13%
Variant = F5M; value = 40.1%
Variant = T135I; value = -0.248%
Variant = R46Y; value = 4.22%
Variant = E67L; value = 1.38%
Variant = T160M; value = 1.7%
Variant = D97Q; value = 26.4%
Variant = E130S; value = 30.6%
Variant = V143S; value = -5.22%
